# Assay results of several laboratories.
# Compare with care: the assays were run in different laboratories. ± gives the spread as reported.
SMILES,cell line,test,test system,setting,scale,endpoint,value
COc1cc2c(c(O)c1OC)C(=O)c1c(cc(C)c(O[C@@H]3O[C@H](CO)[C@@H](O)[C@H](O)[C@H]3O)c1OC)C2=O,HK-2 co-cultured with HepaRG,MTT,,"266.67 µM, 24 h",relative to: untreated control,cell viability,45.7 ± 14.3%
CSc1c(-c2nc3ccccc3[nH]2)c(N)n(NS(=O)(=O)c2ccccc2)c(=O)c1C#N,Huh7.5,,,72 h,,maximum non-toxic concentration,100 µg/mL
CCCCc1oc2ccc(NS(C)(=O)=O)cc2c1C(=O)c1ccc(OCCCN(CCCC)CCCC)cc1,H9 human embryonic stem cell aggregates,qRT-PCR,3D aggregates,"0.1 µM, 5 days, developmental toxicity model",direction not given,ALERT score,2
CCCCCCCCCCCCCCCCOP(=O)([O-])OCC[N+](C)(C)C,human primary fibroblasts,"viability, MTS",,24 h,,CC50,> 20 µM
CCCCCCCCN(CCC(=O)Nc1ccccc1)C(=O)[C@H]1CCCN1,Lmna G609G/G609G mouse fibroblasts,MTT,,"2 µM, 72 h",relative to: vehicle-treated wild type,viability,80 ± 7%
C/C(O)=C(\C#N)C(=O)Nc1ccc(C(F)(F)F)cc1,SIRC,,culture medium,"10 µM, 48 h",,free drug concentration,2600 nM
CCc1ncn(CC(c2c[nH]c3ccc(C)cc23)c2c[nH]c3ccc(C)cc23)c1C(=O)OC,human primary fibroblasts,"viability, MTS",,24 h,,CC50,> 20 µM
N#Cc1ccc(Nc2nc(N)cc(Oc3ccc(-c4ccc(C#N)cc4)c(C(F)(F)F)c3)n2)cc1,MT4 uninfected,,,,,CC50,> 291 µM
COc1c(O)cc2c(c1O)C(=O)c1c(cc(C)c(O)c1OC)C2=O,HK-2 co-cultured with HepaRG,MTT,,"133.33 µM, 48 h",relative to: untreated control,viability,56.2 ± 3.9%
Cc1noc(C)c1Cn1cc(N2C(=O)CN(Cc3cccc(O)c3)C2=O)cn1,human blood lymphocytes,,,"823.8 µg/mL, 3 h",,aberrant cells without gaps,1.5%
Cc1cc(Nc2ccc(S(F)(F)(F)(F)F)cc2)n2nc(C(C)(F)F)nc2n1,SIRC,,culture medium,"5 µM, 48 h",,free drug concentration,600 nM
N#Cc1ccc(Nc2nc(N)cc(Oc3ccc(-c4ccccc4)cc3F)n2)cc1,MT4 uninfected,,,,,CC50,29.6 ± 1.63 µM
CCOC(=O)c1cc(C#N)c(=O)n(NS(=O)(=O)c2ccccc2)c1N,Huh7.5,,,72 h,,maximum non-toxic concentration,90 µg/mL
N#Cc1ccc(Nc2nc(N)cc(Oc3ccc(-c4ccc(C#N)cc4)c(F)c3F)n2)cc1,MT4 uninfected,,,,,CC50,> 45 µM
Nc1n[nH]c2c(-c3nc4ccccc4s3)c(N)n(NS(=O)(=O)c3ccccc3)c(=O)c12,Huh7.5,,,72 h,,maximum non-toxic concentration,90 µg/mL
N#Cc1ccc(Nc2nc(N)cc(Oc3ccc(-c4ccc(C#N)cc4)cc3F)n2)cc1,MT4 uninfected,,,,,CC50,221 µM
CCOC(=O)c1c(C)ncn1CC(c1cn(C)c2ccc([N+](=O)[O-])cc12)c1cn(C)c2ccc([N+](=O)[O-])cc12,human primary fibroblasts,"viability, MTS",,24 h,,CC50,> 20 µM
N#Cc1ccc(Nc2nc(N)cc(Oc3ccc(-c4ccccc4)cc3)n2)cc1,MT4 uninfected,,,,,CC50,25.6 ± 8.09 µM
Nc1nc(NS(=O)(=O)c2ccccc2)nc(-c2ccc(Cl)cc2)c1-c1nc2ccccc2s1,Huh7.5,cytotoxicity,,72 h,,maximum non-toxic concentration,100 µg/mL
CCn1c(=O)/c(=C2\Sc3cc(Cl)ccc3N2C)s/c1=C\c1scc[n+]1Cc1ccccc1,MYBPC3-mutant iPSC cardiomyocytes,cell viability,,24 h,,EC50,> 60 µM
N#Cc1ccc(Nc2nc(N)cc(Oc3ccc(-c4cccc(C#N)c4)cc3F)n2)cc1,MT4 uninfected,,,,,CC50,221 ± 9.52 µM
COc1cc(O)c2c(c1)C(=O)c1cc(C)cc(O)c1C2=O,HK-2 co-cultured with HepaRG,MTT,,"266.67 µM, 24 h",relative to: untreated control,viability,99.6 ± 10.3%
O=C(CNc1nc(NS(=O)(=O)c2ccccc2)ncc1-c1nc2ccccc2s1)c1ccc(Br)cc1,Huh7.5,cytotoxicity,,72 h,,maximum non-toxic concentration,120 µg/mL
COc1c(O)c(C)cc2c1C(=O)c1c(O)cccc1C2=O,HK-2 co-cultured with HepaRG,MTT,,"33.33 µM, 48 h",relative to: untreated control,viability,82.2 ± 7.52%
O=C(CCNc1cnc(C(=O)Nc2cc(F)cc3cccnc23)cn1)NO,MIA PaCa-2,MTT,,concentration not given,,cytotoxicity,not toxic
Nc1nc(NS(=O)(=O)c2ccccc2)ncc1-c1nc2ccccc2s1,Huh7.5,cytotoxicity,,72 h,,maximum non-toxic concentration,100 µg/mL
Cc1cc(O)c2c(c1)C(=O)c1cccc(O)c1C2=O,HK-2 co-cultured with HepaRG,MTT,,"133.33 µM, 24 h",relative to: untreated control,viability,90.2 ± 16.6%
COC[C@@H](CC(C)C)NC(=O)c1ccc(C)c(C)c1,primary human lymphocytes,item: structural aberrations,,"158 µg/mL, 20 h, without S9",,cells with aberrations,0%
COc1ccc2c(Cc3ccccc3F)c3n(c(=O)c2c1OC)CCc1cc2c(cc1-3)OCO2,CHO-K1,"cytotoxicity, CCK-8",,24 h,,IC50,12.1 µM
COc1ccc(-c2nc(NS(=O)(=O)c3ccccc3)nc(N)c2-c2nc3ccccc3s2)cc1,Huh7.5,cytotoxicity,,72 h,,maximum non-toxic concentration,100 µg/mL
CCSc1c(-c2nc3ccccc3s2)c(N)n(NS(=O)(=O)c2ccccc2)c(=O)c1C#N,Huh7.5,,,72 h,,maximum non-toxic concentration,120 µg/mL
CSc1nc(NS(=O)(=O)c2ccccc2)nc(N)c1-c1nc2ccccc2s1,Huh7.5,cytotoxicity,,72 h,,maximum non-toxic concentration,90 µg/mL
CC(=O)c1c(C)cc2cc(O)cc(O[C@@H]3O[C@H](CO)[C@@H](O)[C@H](O)[C@H]3O)c2c1O,HK-2 co-cultured with HepaRG,MTT,,"16.67 µM, 24 h",relative to: untreated control,cell viability,152 ± 14.3%
N#Cc1ccc(Nc2nc(N)cc(Oc3ccc(-c4cccc(C#N)c4)cc3)n2)cc1,MT4 uninfected,,,,,CC50,> 256 µM
CCCCC(CC)COC(=O)CC(C(=O)OCC(CC)CCCC)S(=O)(=O)O (stereo not shown),THP-1,MTT,,50 µM,,cytotoxicity,not toxic
c1csc(CNc2cc[nH]n2)c1,"human peripheral blood lymphocytes, female",,,"100 µg/mL, 20 h, without S9",,cells with structural aberrations,0%
Cc1cn([C@H]2C[C@H](N=[N+]=[N-])[C@@H](CO)O2)c(=O)[nH]c1=O,MT4 uninfected,,,,,CC50,> 7 µM
O=C(CNc1nc(NS(=O)(=O)c2ccccc2)ncc1-c1nc2ccccc2s1)c1ccc(Cl)cc1,Huh7.5,cytotoxicity,,72 h,,maximum non-toxic concentration,110 µg/mL
O=C(O)c1cc(O)c2c(c1)C(=O)c1cccc(O[C@@H]3O[C@H](CO)[C@@H](O)[C@H](O)[C@H]3O)c1C2=O,HK-2 co-cultured with HepaRG,MTT,,"133.33 µM, 24 h",relative to: untreated control,cell viability,89.5 ± 6.51%
Cc1cc(C(=O)NC(C)(C)COc2cccc3c2C(N)=NS(=O)(=O)N3)cc(C)n1,human peripheral blood lymphocytes,"CBPI, concurrent micronucleus test",,"500 µg/mL, 24 h",relative to: vehicle control,cytotoxicity,1%
Nc1nc(NS(=O)(=O)c2ccccc2)nc(-c2ccc(F)cc2)c1-c1nc2ccccc2s1,Huh7.5,cytotoxicity,,72 h,,maximum non-toxic concentration,100 µg/mL
O=C1c2cccc(O)c2C(=O)c2c(O)cc(CO)cc21,HK-2 co-cultured with HepaRG,MTT,,"266.67 µM, 48 h",relative to: untreated control,viability,11.1 ± 6.88%
CCCCc1oc2ccccc2c1C(=O)c1cc(I)c(OCCN(CC)CC)c(I)c1,H9 human embryonic stem cell aggregates,qRT-PCR,3D aggregates,"4 µM, 5 days, developmental toxicity model",direction not given,ALERT score,11

# Repeated from above:
SMILES,cell line,test,test system,setting,scale,endpoint,value
Nc1nc(NS(=O)(=O)c2ccccc2)ncc1-c1nc2ccccc2s1,Huh7.5,cytotoxicity,,72 h,,maximum non-toxic concentration,100 µg/mL
N#Cc1ccc(Nc2nc(N)cc(Oc3ccc(-c4ccc(C#N)cc4)cc3F)n2)cc1,MT4 uninfected,,,,,CC50,221 µM
O=C1c2cccc(O)c2C(=O)c2c(O)cc(CO)cc21,HK-2 co-cultured with HepaRG,MTT,,"266.67 µM, 48 h",relative to: untreated control,viability,11.1 ± 6.88%
O=C(CNc1nc(NS(=O)(=O)c2ccccc2)ncc1-c1nc2ccccc2s1)c1ccc(Cl)cc1,Huh7.5,cytotoxicity,,72 h,,maximum non-toxic concentration,110 µg/mL
